Assay results from different studies.
Lines come from different studies, so protocols differ. ± marks the error that the study gave.
Matrix: plasma

Compound | assay | system | conditions | AUC(0-t)
CC1C(c2c(F)ccc(F)c2F)CC(N[14C](=O)c2cnc3c(c2)CC2(C3)C(=O)Nc3ncccc32)C(=O)N1CC(F)(F)F (centres unmarked) | liquid scintillation counting, item: total radioactivity | human | oral, 50 mg, single dose, 14C-labelled | 2710 ± 759 ng-eq·h/mL
CN1CCC[C@]1(C)/C=C/S(=O)(=O)NC(=O)Nc1c2c(cc3c1CCC3)CCC2 |  | human | oral, 12.5 mg twice daily, day 14, multiple ascending dose | 28900 ng·h/mL
[2H]C([2H])([2H])NC(=O)c1ccc(N2C(=S)N(c3ccc(C#N)c(C(F)(F)F)c3)C(=O)C2(C)C)cc1F |  | healthy male human | oral, 160 mg, fed, single dose | 712000 ± 201000 ng·h/mL
O=C(CCc1ccc(CNC(C(=O)OC2CCCC2)C2CCCCC2)cn1)NO (centres unmarked) |  | human | oral, 40 mg once daily, day 1, geometric mean | 138 ng·h/mL
[2H]C([2H])(c1ccc(O)c(O)c1)[C@]([2H])(N)C(=O)O |  | human | oral, 150 mg single, geometric LS mean, together with: 37.5 mg carbidopa | 3450 ng·h/mL
CCc1cc(Nc2nc(-c3ccc(-n4cnc(C)c4)c(F)c3)cs2)c(C)cc1C |  | human | oral, 200 mg once daily, day 14, geometric mean | 3880 ng·h/mL
CC(C)[C@H](NC(=O)CNC(=O)[C@H](CCC(N)=O)NC(=O)[C@H](C)N)C(=O)O |  | human, both sexes | intravenous infusion, 90 mg/kg/h, 2 h infusion, geometric mean | 7340 ng·h/mL
O=C(CCc1ccc(CNC(C(=O)O)C2CCCCC2)cn1)NO (centres unmarked) |  | healthy male humans | oral, 40 mg, single dose, geometric mean | 189 ng·h/mL
CN[C@@H](CCOc1cccc2ccccc12)c1ccccc1 |  | healthy male humans | oral, 60 mg of dapoxetine, together with: udenafil 200 mg | 187 ± 106 ng·h/mL
[2H]C([2H])([2H])Oc1cc2c(cc1OC([2H])([2H])[2H])[C@H]1CC(=O)[C@H](CC(C)C)CN1CC2 |  | human CYP2D6 extensive metabolizers | oral, 25 mg, fasted, geometric mean | 0.2 ng·h/mL
Cn1c(=O)oc2ccc(-c3ccc(CC(C#N)NC(=O)C4CNCCCO4)c(F)c3)cc21 (centres unmarked) |  | human | 10 mg once daily, day 28, geometric mean | 1450 ng·h/mL

Excerpt of the above:
Compound | assay | system | conditions | AUC(0-t)
Cn1c(=O)oc2ccc(-c3ccc(CC(C#N)NC(=O)C4CNCCCO4)c(F)c3)cc21 (centres unmarked) |  | human | 10 mg once daily, day 28, geometric mean | 1450 ng·h/mL
